Published values collected from several papers.
Numbered parts are unrelated; each lists some results of a single study. Substitutions count along the parent as printed.

Sample 1 — method: competition protein-binding microarray; molecule type: double-stranded DNA, one strand shown; matrix: in vitro; tested at: 2 µM; together with: Cbf1 competitor, 0.05 µM; reading: higher = stronger binding; shared flanks, not repeated: … GTCTTGATTCGCTTGACGCTGCTG
Target: Phosphate system positive regulatory protein PHO4, full length, GST-tagged (PHO4, Saccharomyces cerevisiae, UniProt P07270, residues 1-312)
Setting: whole 60-bp probe, lowest competitor level
Construct (chain): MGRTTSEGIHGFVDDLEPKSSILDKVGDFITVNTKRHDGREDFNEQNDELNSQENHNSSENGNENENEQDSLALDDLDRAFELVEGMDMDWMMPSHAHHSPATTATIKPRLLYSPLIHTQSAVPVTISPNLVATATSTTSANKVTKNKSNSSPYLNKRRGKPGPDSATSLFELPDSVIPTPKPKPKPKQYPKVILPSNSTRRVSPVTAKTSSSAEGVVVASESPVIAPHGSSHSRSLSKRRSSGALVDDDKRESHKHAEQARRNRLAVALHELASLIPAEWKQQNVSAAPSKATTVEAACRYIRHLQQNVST
| Sequence | fluorescence intensity |
| --- | --- |
| ATCTTGACATTAGATCAGCTGATAAGTTTTCAACTT | 3480 a.u. |
| AAATTACTAAGTTGTCACATGACTTACCCCGTATGA | 6410 a.u. |
| TTATTCCCCAACAATCACGTTCCTTCTGCCAACATC | 11900 a.u. |
| AGAAACATAGTATGGAACGTGCAAAAGAGTCTGATT | 13100 a.u. |
| TACGACGAGACTTGGCATGATCAAAGTGCAAAAGAA | 4290 a.u. |
| CTTTCCCGATCTTTTCACGTGTACTTAGCACATTTG | 13400 a.u. |
| ATTTCTTTTCCAATTCACGGGTCAATTTGGTTTGGA | 4740 a.u. |
| CTTCTGTAAATTTGAAAGGTGGGTGGACGCGCCCCG | 4180 a.u. |

Sample 2 — method: Sort-seq; item: YFP reporter; matrix: E. coli; setting: PhoQ-PhoP variant library; together with: 10 µM Mg2+; reference: high Mg2+ state; reading: higher = stronger signaling
Molecule: PhoQ, residues 284 288 289 292 302 303 SVTLVV
| target | fold induction |
| --- | --- |
| PhoP, residues 12 14 15 18 19 TQALL (Escherichia coli, UniProt P23836) | 21.5 |
| PhoP, residues 12 14 15 18 19 QYFSL (Escherichia coli, UniProt P23836) | 3.35 |
| PhoP, residues 12 14 15 18 19 NYFRM (Escherichia coli, UniProt P23836) | 6.6 |

Sample 3 — method: RNAcompete; molecule type: RNA; matrix: in vitro; tested at: 20 nM; setting: 7-mer, probes averaged, single round; reference: mean of 7-mers; reading: higher = stronger binding
Target: PABPC1L2, full length, GST fusion (mouse, UniProt A0ABA7IW68)
Residues (chain): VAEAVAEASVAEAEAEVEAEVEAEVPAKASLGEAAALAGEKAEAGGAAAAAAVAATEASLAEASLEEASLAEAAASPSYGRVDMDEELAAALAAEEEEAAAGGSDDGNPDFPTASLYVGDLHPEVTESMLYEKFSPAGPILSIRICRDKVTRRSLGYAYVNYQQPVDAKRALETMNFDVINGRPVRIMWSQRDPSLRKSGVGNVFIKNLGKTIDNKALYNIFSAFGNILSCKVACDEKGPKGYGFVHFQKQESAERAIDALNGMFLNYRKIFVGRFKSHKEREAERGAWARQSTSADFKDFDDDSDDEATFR
| Sequence | 7-mer Z-score |
| --- | --- |
| GUUGAAG | -0.211 |
| UAGGCCU | -0.271 |
| AUUAUGU | -0.103 |
| UGAAGGG | 0.153 |
| CCCUCUU | -0.336 |
| GGCGGUA | 0.182 |
| CGUCCCG | -0.409 |
| UCGAGGU | -0.126 |

Mixed results
Starting sequence: PafA, mature enzyme, eGFP fusion (Elizabethkingia meningoseptica, UniProt Q9KJX5); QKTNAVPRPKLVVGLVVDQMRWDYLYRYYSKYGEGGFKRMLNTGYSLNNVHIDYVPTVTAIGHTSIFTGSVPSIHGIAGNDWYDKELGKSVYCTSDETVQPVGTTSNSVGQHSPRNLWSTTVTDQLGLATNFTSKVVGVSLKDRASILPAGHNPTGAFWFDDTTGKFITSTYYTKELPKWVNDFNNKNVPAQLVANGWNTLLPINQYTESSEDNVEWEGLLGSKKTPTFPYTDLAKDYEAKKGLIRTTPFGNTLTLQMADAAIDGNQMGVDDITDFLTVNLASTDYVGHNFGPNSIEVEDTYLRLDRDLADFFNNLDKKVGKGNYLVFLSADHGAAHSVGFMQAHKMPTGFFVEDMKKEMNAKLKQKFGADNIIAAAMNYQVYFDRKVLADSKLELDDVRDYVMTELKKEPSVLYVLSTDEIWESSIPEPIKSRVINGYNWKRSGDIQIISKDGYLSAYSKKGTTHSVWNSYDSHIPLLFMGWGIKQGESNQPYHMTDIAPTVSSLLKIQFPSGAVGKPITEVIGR
| Substitution | target | test | system | setting | how to read | endpoint | value |
| --- | --- | --- | --- | --- | --- | --- | --- |
| L244G | tungstate, free oxyanion | microfluidic competitive inhibition | in vitro, cell-free expressed | not given, derived from inhibition constants, unchanged parent 2230 nM | lower = stronger binding | oxyanion analog dissociation constant | 1.6 µM |

Repeated from above (sample 1):
| Sequence | fluorescence intensity |
| --- | --- |
| CTTTCCCGATCTTTTCACGTGTACTTAGCACATTTG | 13400 a.u. |
| ATTTCTTTTCCAATTCACGGGTCAATTTGGTTTGGA | 4740 a.u. |
